Assay results collected from several papers.
Each line is one published result; not all experiments were run side by side. “And” joins repeats or separate records; there may be more than shown. ± marks the error that the study gave. Converted amounts (≈) assume the structure as drawn.

For C#CCNC(=O)C1(O/N=C(\C(=O)N[C@@H]2C(=O)N(OS(=O)(=O)O)C2(C)C)c2csc(N)n2)CC1, the MIC was 0.5 µg/mL (≈ 0.999 µM) (Shigella flexneri; agar dilution; ATCC 12022 susceptible).
c1ccc(CN2CCOCCOCCN(CCCCCCCCCCCCN3CCOCCOCCN(CCCCCCCCCCCCN4CCOCCOCCN(Cc5ccccc5)CCOCCOCC4)CCOCCOCC3)CCOCCOCC2)cc1 gave a tetracycline MIC of 500 ± 50 µM (Klebsiella pneumoniae; ATCC BAA-2146; 2.5 µM, with: tetracycline).
For Fc1cccc(COc2ccc(Nc3ncnc4ccc(-c5ccccc5)cc34)cc2Cl)c1, the EC50 was 4 µM (Leishmania major; parasite growth, resazurin; promastigote).
For OB(O)c1ccc(C(F)(F)F)s1, the growth was 80.1% and 86% and 99.3% and 77% and 84.5% (Streptococcus pyogenes; 100 µM, 10 h; reference: untreated).
CC(C)(C)NCC(SS(=O)(=O)O)c1ccccc1 (centres unmarked) has a liver weight of 2.3 g and 1.75 g and 2.2 g and 2.4 g and 1.9 g (Schistosoma mansoni; perfusion day 44; infected Swiss Webster mice; 600 mg/kg single dose, dosed day 7 post-infection).
With Cc1cc(Cl)cc(S(C)=NC#N)c1NC(=O)c1cc(Br)nn1-c1ncccc1Cl (centres unmarked) the larval survival was 23.1% (Spodoptera litura; Brassica oleracea field; 50 ppm, 72 h, 10% wettable powder).
Cc1cnc(CNC(=O)c2c(=O)c3ccc(N4CCCN(C)CC4)nc3n3c2sc2ccccc23)cn1 — result for “unchanged G4-containing genes”: 712 genes (Trypanosoma brucei; RNA-seq; Lister 427 bloodstream form; 2 x EC50, 4 h; reference: untreated).
With Clc1cc(Nc2ncnc3ccc(-c4cccc(N5CCOCC5)c4)cc23)ccc1OCc1ccccc1 the EC50 was 6.6 µM (Leishmania major; parasite growth, resazurin; promastigote).
For CC1(C)C(NC(=O)C(=NOC2(C(=O)O)CCC2)c2csc(N)n2)C(=O)N1OS(=O)(=O)O (centres unmarked), the MIC was 1 µg/mL (≈ 2.09 µM) (Shigella flexneri; agar dilution; ATCC 12022, susceptible).
With Fc1cccc(COc2ccc(Nc3ncnc4ccc(-c5ccc(N6CCOCC6)cc5)cc34)cc2Cl)c1 the EC50 was 4.4 µM (Leishmania major; parasite growth, resazurin; promastigote).
CC1(C)[C@H](NC(=O)/C(=N\OCC(=O)N2CCC(C(=O)O)C2)c2nsc(N)n2)C(=O)N1OS(=O)(=O)O (some centres unmarked) gave an MIC of 8 µg/mL (≈ 14.9 µM) (Shigella flexneri; agar dilution; ATCC 12022, susceptible).
CC(=O)O[C@@H]1[C@@H](OC(C)=O)[C@H](Sc2sc(C(=O)c3ccc(Br)cc3)c(N)c2-c2nc3ccccc3s2)OC[C@H]1OC(C)=O: “viral titre reduction” 30% (human adenovirus type 7; plaque reduction; non-toxic concentration).
COc1cccc(/C=N/Nc2nc(Nc3ccccc3)nc(-n3nc(C)cc3C)n2)c1O has an Emax of 91% (Mus musculus; gene silencing, high-content imaging; LDR reporter GFP cells; 30 h, retest, mean of two runs).
CC(=O)OC[C@H]1O[C@@H](Sc2sc(C(=O)c3ccc(Cl)cc3)c(N)c2-c2nc3ccccc3s2)[C@H](OC(C)=O)[C@@H](OC(C)=O)[C@@H]1OC(C)=O — result for “viral titre reduction”: 10% (human adenovirus type 7; plaque reduction; non-toxic concentration).
C(=N\Nc1nc(-c2ccccn2)nc2ccccc12)/c1ccccc1 has an Emax of 124% (Mus musculus; gene silencing, high-content imaging; LDR reporter GFP cells; 30 h, retest, mean of two runs).
[2H]C([2H])(N)C([2H])([2H])NC(=O)c1cc(C2CC2)nc2c1cnn2C(C)C has a plaque reduction of 0% (Enterovirus D68; viral replication; RD, US/MO/14-18947; 100 nM).
The MIC of CC1C=CC=CC(C)C2C=CC3CC(C)(O)C(Cl)C(C)C3C2C(=O)C(Cl)(Cl)C(=O)C(C)C(=O)O1 (centres unmarked) is reported as 0.025 µg/mL (≈ 0.047 µM) (Staphylococcus aureus; MRSA clinical isolate; resistant: OXA,CIP,CLI,DAP,ERY,LVX,MXF,TOB).
The Emax of COc1ccc2c(C)nc(Nc3nc(O)cc(-c4ccccc4)n3)nc2c1 is reported as 100% (Mus musculus; gene silencing, high-content imaging; LDR reporter GFP cells; 30 h, retest run 2).
CN1CCN(S(=O)(=O)c2ccc(-c3ccc4ncnc(Nc5ccccc5)c4c3)cc2)CC1 gave an EC50 of 6.1 µM (Leishmania major; parasite growth, resazurin; promastigote).
For CCCCCCCCCC(=O)N[C@@H](Cc1c[nH]c2ccccc12)C(=O)N[C@H](CC(N)=O)C(=O)N[C@@H](CC(=O)O)C(=O)N[C@@H]1C(=O)NCC(=O)N[C@@H](CCCNC(=O)OC2/C=C/CCCCC2)C(=O)N[C@@H](CC(=O)O)C(=O)N[C@H](C)C(=O)N[C@@H](CC(=O)O)C(=O)NCC(=O)N[C@H](CO)C(=O)N[C@@H]([C@H](C)CC(=O)O)C(=O)N[C@@H](CC(=O)c2ccccc2N)C(=O)O[C@@H]1C (some centres unmarked), “peak heat flow” read 0 µW (Staphylococcus aureus; planktonic bacterial growth, isothermal microcalorimetry; MRSA; 2.0 µg/mL, 24 h, 37 °C).
Fc1cccc(COc2ccc(Nc3ncnc4ccc(-c5cccc(-n6cccn6)c5)cc34)cc2Cl)c1 gave an EC50 of > 15 µM (Leishmania major; parasite growth, resazurin; promastigote).
Cc1c(CN(C)C(=O)/C=C/c2cnc3c(c2)CC(N)C(=O)N3)oc2ccccc12 (centres unmarked) has an MIC of 8 µg/mL (≈ 20.5 µM) (Klebsiella pneumoniae; microbial growth, broth dilution; BAA1705).
For CC1(C)[C@H](NC(=O)/C(=N\OCc2c(Cl)cccc2Cl)c2csc(N)n2)C(=O)N1OS(=O)(=O)O, the MIC was 1 µg/mL (≈ 1.86 µM) (Shigella flexneri; agar dilution; ATCC 12022, susceptible).
The EC50 of O=S(=O)(c1cccc(-c2ccc3ncnc(Nc4ccc(OCc5cccc(F)c5)c(Cl)c4)c3c2)c1)N1CCOCC1 is reported as > 15 µM (Leishmania major; parasite growth, resazurin; promastigote).
C#CCO/N=C(\C(=O)N[C@@H]1C(=O)N(OS(=O)(=O)O)C1(C)C)c1csc(N)n1 gave an MIC of 0.5 µg/mL (≈ 1.2 µM) (Shigella flexneri; agar dilution; ATCC 12022, susceptible).
FC(F)(F)c1cccc(CNc2nc(NC3CCN(Cc4ccccc4)CC3)c3nc[nH]c3n2)c1: “log2 fold change” -0.325 (Cryptococcus neoformans; RNA-seq, item: CNAG_04335; wild type; 48 µg/mL, 3 h; reference: untreated wild type).
For COCC/N=C(\S)N/N=C(\C)c1ccccc1O, the AC50 was 10 µM (Mus musculus; gene silencing, high-content imaging; LDR reporter GFP cells; retest run 1).
Under “viral titre reduction”, CC(=O)O[C@@H]1[C@@H](OC(C)=O)[C@H](Sc2sc(C(=O)c3ccc(C)cc3)c(N)c2-c2nc3ccccc3s2)OC[C@H]1OC(C)=O is recorded as 20% (human adenovirus type 7; plaque reduction; non-toxic concentration).
CC1(C)[C@H](NC(=O)/C(=N\OC2(C(=O)O)CC2)c2nsc(N)n2)C(=O)N1OS(=O)(=O)O gave an MIC of ≤ 0.03 µg/mL (Proteus vulgaris; agar dilution; ATCC 29905, susceptible).
C=C(NC(=O)c1csc(-c2nc3c(cc2O)-c2nc(cs2)C(=O)NC(C(C)O)C(=O)NC(=C(C)OC)c2nc(cs2)C(=O)NC2c4nc(cs4)C(=O)NC(COC(=O)c4c5c6c(cccc6n4O)COC(=O)C(OC4CC(C)(O)C(N(C)C)C(C)O4)C2OC5)c2nc-3cs2)n1)C(N)=O (centres unmarked) has an MIC50 of 0.0156 µg/mL (≈ 0.0109 µM) (Staphylococcus aureus; MRSA, 10 isolates; pH 5.5).
For O=C(CSc1cccc[n+]1[O-])c1ccccc1Br, the Emax was 127% (Mus musculus; gene silencing, high-content imaging; LDR reporter GFP cells; 30 h, confirmation, mean of two runs).
For O=C(O)CN1C(=O)[C@H](Cc2ccccc2)NC2(C1=O)C1CC3CC(C1)CC2C3 (some centres unmarked), the IC90 was 203 µM (Trypanosoma brucei; parasite growth; pH 7.4, blood stage).
CC(C)n1ncc2c(C(=O)NC[C@@H](C)N)cc(C3CC3)nc21 gave a plaque reduction of 0% (Enterovirus D68; viral replication; RD, US/MO/14-18947; 100 nM).
For Cc1cccc2c1N(C(=O)n1ccnn1)CC2, the germination rate was 49.6% (Arabidopsis thaliana; kai2 mutant; 100 µM, 72 h).
With CC1(C)[C@H](NC(=O)/C(=N\OCCN)c2nsc(N)n2)C(=O)N1OS(=O)(=O)O the MIC was 0.25 µg/mL (≈ 0.59 µM) (Proteus vulgaris; agar dilution; ATCC 29905, susceptible).
With O=C(NN1C(=O)c2ccccc2NC1c1ccc([N+](=O)[O-])o1)c1ccc([N+](=O)[O-])cc1 (centres unmarked) the Emax was 27% (Mus musculus; gene silencing, high-content imaging; LDR reporter GFP cells; 30 h, confirmation, mean of two runs).
The EC50 of O=S(=O)(c1ccc(-c2ccc3ncnc(Nc4ccc(OCc5ccc(F)cc5)c(Cl)c4)c3c2)cc1)N1CCOCC1 is reported as 1.7 µM (Leishmania major; parasite growth, resazurin; promastigote).
O=C(N/N=C/c1ccc(C[n+]2ccccc2)cc1)c1cncc(C(=O)N/N=C/c2ccc(C[n+]3ccccc3)cc2)n1 gave a ΔTm of 4.4 ± 0.3 °C (MYC parallel G4 DNA; FRET melting; 1 µM, DNA 0.2 µM).
With O=C(N/N=C/c1ccccn1)c1cc(-c2ccc(Cl)cc2)nc2ccccc12 the AC50 was 10 µM (Mus musculus; gene silencing, high-content imaging; LDR reporter GFP cells; retest run 2).
For CC(C)n1ncc2c(C(=O)NCC(C)(C)N)cc(C3CC3)nc21, the plaque reduction was 12% and 16% (Enterovirus D68; viral replication; RD, US/MO/14-18947; 100 nM).
The selectivity index of COc1ccc(S(=O)(=O)N(C)c2cc(OC)cc(C(=O)O)c2)cc1 is reported as > 2.7 (Leishmania infantum; intracellular amastigote growth; U-937 macrophages and HeLa; reference: IC50 HeLa over IC50 amastigotes).
For CCN(CC)CCCNC(=O)CSc1c2c(nc3cc(Cl)ccc13)CCCC2, the Emax was 86% (Mus musculus; gene silencing, high-content imaging; LDR reporter GFP cells; 30 h, retest run 2).
For CN(Cc1ccc(C2(C(F)(F)F)CCC2)cc1)Cc1cccc2ccccc12, the MFC was 32000 µg/mL (≈ 83500 µM) (Trichophyton mentagrophytes; microbial killing, broth dilution; ATCC18748; 72 h).
CC(C)(O/N=C(\C(=O)N[C@@H]1C(=O)N(OS(=O)(=O)O)C1(C)C)c1nsc(N)n1)C(=O)O has an MIC of 32 µg/mL (≈ 68.6 µM) (Shigella flexneri; agar dilution; ATCC 12022, susceptible).
C[n+]1cccc2cc(/C=N/NC(=O)C(=O)N/N=C/c3ccc4c(ccc[n+]4C)c3)ccc21 gave a ΔTm of 0.8 ± 0.1 °C (hp2 hairpin duplex DNA; FRET melting; 1 µM).
CN(C)CCNC(=O)c1cccn2c(=O)c3cc4ccccc4cc3nc12 — result for “downregulated G4-containing genes”: 8 genes (Trypanosoma brucei; RNA-seq; Lister 427 bloodstream form; 2 × EC50, 4 h, ChIP-seq G4 peak overlap).
The EC50 of CN1CCN(S(=O)(=O)c2ccc(-c3ccc4ncnc(Nc5ccc(F)cc5)c4c3)cc2)CC1 is reported as 12 µM (Leishmania major; parasite growth, resazurin; promastigote).
